# Results gathered from unrelated publications.
# Lines come from different studies, so protocols differ. ± marks the error that the study gave.
SMILES,test,system,conditions,tissue uptake
CC[C@H](C)[C@H](NC(=O)[C@H](CCCCN)NC(=O)CNC(=O)[C@H](CC(C)C)NC(=O)[C@H](Cc1ccccc1)NC(=O)[C@H](CCCCN)NC(=O)[C@H](CO)NC(=O)[C@H](Cc1ccccc1)NC(=O)[C@H](Cc1c[nH]c2ccccc12)NC(=O)[C@H](CCC(N)=O)NC(=O)[C@@H](NC(=O)[C@H](Cc1ccccc1)NC(=O)CCCCCNC(=O)CN1CCN(CC(=O)O)CCN(CC(=O)O)CCN(CC(=O)O)CC1)C(C)C)C(=O)N[C@@H](CCC(=O)O)C(=O)N1CCC[C@H]1C(=O)N[C@@H](CC(=O)O)C(=O)N[C@H](C(=O)N[C@@H](CO)C(=O)N[C@@H](CCC(N)=O)C(=O)N[C@H](C(=O)N[C@@H](CCC(N)=O)C(=O)N[C@@H](CC(=O)O)C(=O)N1CCC[C@H]1C(=O)N[C@@H](CC(N)=O)C(=O)N[C@@H](CC(=O)O)C(=O)N[C@@H](CCC(N)=O)C(=O)N[C@@H](Cc1ccc(O)cc1)C(=O)N[C@@H](CCC(=O)O)C(=O)N1CCC[C@H]1C(=O)N[C@@H](Cc1ccccc1)C(=O)O)C(C)C)C(C)C [copper-64 labelled],,"GZMB-/- mice, CT26 tumour-bearing, liver","2 h, vehicle-treated",8.12 ± 1.2 %ID/g
CC[C@H](C)[C@H](NC(=O)[C@H](CCCNC(=N)N)NC(=O)[C@H](CCCCN)NC(=O)[C@H](Cc1ccc(O)cc1)NC(=O)[C@H](CC(=O)O)NC(=O)[C@H](C)NC(=O)CNC(=O)CCOCCOCCOCCNC(=O)CN1CCN(CC(=O)O)CCN(CC(=O)O)CCN(CC(=O)O)CC1)C(=O)N[C@H](C(=O)N[C@H](C(=O)N[C@@H](CCCCN)C(=O)N[C@H](C(=O)N[C@@H](CC(N)=O)C(N)=O)C(C)C)C(C)C)[C@@H](C)O [copper-64 labelled],ex vivo gamma counting,"C57BL/6J male mice, B16-F10 tumour, testis","intravenous, 1.85 MBq, 40 min",0.543 ± 0.082 %ID/g
CC(C)C[C@@H](NC(=O)[C@@H](CCCNC(=N)N)NC(=O)[C@@H](Cc1c[nH]cn1)NC(=O)[C@@H](Cc1c[nH]c2ccccc12)NC(=O)[C@@H](Cc1c[nH]cn1)NC(=O)[C@@H](Cc1ccccc1)NC(=O)[C@H](NC(=O)[C@@H](Cc1ccc(O)cc1)NC(=O)CNC(=O)CNC(=O)CCOCCOCCOCCNC(=O)CN1CCN(CC(=O)O)CCN(CC(=O)O)CC1)[C@H](C)O)C(=O)N[C@H](CC(N)=O)C(=O)N1CCC[C@@H]1C(=O)O [gallium-68 labelled],gamma counting,"C57BL/6 mice, male, liver","intravenous, 1.85 MBq, 120 min",0.63 ± 0.12 %ID/g
Cc1ccccc1-c1ccc(-c2nc(-c3ccc(CN(C)CCCC(=O)O)c([18F])c3)no2)cc1C(F)(F)F,,"Sprague Dawley rats, male, fat",120 min,0.06 ± 0.04 %ID/g
CN1Cc2cc(Cl)ccc2-n2c(nnc2C2CCN(c3cccc([18F])n3)CC2)C1,,"C57BL/6 mouse male, bone","intravenous, 3.7 MBq, 15 min",3.73 ± 0.41 %ID/g
O=C([O-])CNC(=O)CN1CCN(CC(=O)NCC(=O)[O-])CCN(CC(=O)NCC(=O)[O-])CCN(CC(=O)NCC(=O)[O-])CC1.[177Lu+3],,"Sprague-Dawley rat, lung","intravenous (tail vein), dose not given, 2 h",0.021 ± 0.002 % injected dose/g
CC[C@H](C)[C@H](NC(=O)[C@H](CCCNC(=N)N)NC(=O)[C@H](CCCCN)NC(=O)[C@H](Cc1ccc(O)cc1)NC(=O)[C@H](CC(=O)O)NC(=O)[C@H](C)NC(=O)CNC(=O)CCOCCOCCOCCNC(=O)CN1CCN(CC(=O)O)CCN(CC(=O)O)CCN(CC(=O)O)CC1)C(=O)N[C@H](C(=O)N[C@@H](CC(C)C)C(=O)N[C@@H](CCCCN)C(=O)N[C@H](C(=O)N[C@@H](CC(N)=O)C(N)=O)C(C)C)[C@@H](C)O [copper-64 labelled],ex vivo gamma counting,"C57BL/6J male mice, B16-F10 tumour, pancreas","intravenous, 1.85 MBq, 20 min",0.73 ± 0.287 %ID/g
CSCC[C@H](NC(=O)CNC(=O)[C@H](CCCCN)NC(=O)[C@H](CC(C)C)NC(=O)[C@@H]1CCCN1C(=O)[C@H](CO)NC(=O)[C@H](Cc1c[nH]cn1)NC(=O)[C@H](Cc1c[nH]c2ccccc12)NC(=O)[C@H](CCCNC(=N)N)NC(=O)[C@H](CC(C)C)NC(=O)[C@H](CCCNC(=N)N)NC(=O)[C@H](Cc1c[nH]c2ccccc12)NC(=O)[C@H](CS)NC(=O)CCCCCNC(=O)CN1CCN(CC(=O)O)CCN(CC(=O)O)CCN(CC(=O)O)CC1)C(=O)O [copper-64 labelled],ex vivo biodistribution,"BALB/c nude mice, kidney","intravenous, dose not given, 18 h, Huh-7 tumour-bearing",12.1 %ID/g
C[C@H](O)[C@@H](NC(=O)[C@H]1CCCN1C(=O)[C@@H](CCCCN)NC(=O)[C@@H](CO)NC(=O)[C@@H](Cc1ccc(O)cc1)NC(=O)[C@@H](CC(N)=O)NC(=O)CCOCCOCCOCCNC(=O)CN1CCN(CC(=O)O)CCN(CC(=O)O)CCN(CC(=O)O)CC1)C(=O)N[C@H](CC(=O)O)C(=O)N[C@H](CCCNC(=N)N)C(=O)N[C@H](CCC(N)=O)C(=O)N[C@H](Cc1ccc(O)cc1)C(=O)N[C@H](Cc1c[nH]cn1)C(=O)N[C@H](Cc1ccccc1)C(N)=O [gallium-68 labelled],,"BALB/c nude mice U-87 MG tumour, lung","intravenous, 1.85 MBq, 0.08333 h, radiolabelled",1.64 ± 0.42 %ID/g
CCCC[C@H]1C(=O)N(C)[C@@H](CCCC)C(=O)N[C@@H](CCCNC(=O)CN2CCN(CC(=O)O)CCN(CC(=O)O)CCN(CC(=O)O)CC2)C(=O)N[C@H](C(=O)NCC(N)=O)CSCC(=O)N[C@@H](Cc2ccc(O)cc2)C(=O)N(C)[C@@H](C)C(=O)N[C@@H](CC(N)=O)C(=O)N2CCC[C@H]2C(=O)N[C@@H](Cc2c[nH]cn2)C(=O)N[C@@H](CC(C)C)C(=O)N(C)CC(=O)N[C@@H](Cc2c[nH]c3ccccc23)C(=O)N[C@@H](CO)C(=O)N[C@@H](Cc2c[nH]c3ccccc23)C(=O)N1C [gallium-68 labelled],,"NOD/SCID mice, CHO-hPD-L1 xenograft, blood","60 min, atezolizumab 10 mg/kg pretreatment",9.54 ± 0.7 %ID/g

# For quick reference, copied from above:
SMILES,test,system,conditions,tissue uptake
CC(C)C[C@@H](NC(=O)[C@@H](CCCNC(=N)N)NC(=O)[C@@H](Cc1c[nH]cn1)NC(=O)[C@@H](Cc1c[nH]c2ccccc12)NC(=O)[C@@H](Cc1c[nH]cn1)NC(=O)[C@@H](Cc1ccccc1)NC(=O)[C@H](NC(=O)[C@@H](Cc1ccc(O)cc1)NC(=O)CNC(=O)CNC(=O)CCOCCOCCOCCNC(=O)CN1CCN(CC(=O)O)CCN(CC(=O)O)CC1)[C@H](C)O)C(=O)N[C@H](CC(N)=O)C(=O)N1CCC[C@@H]1C(=O)O [gallium-68 labelled],gamma counting,"C57BL/6 mice, male, liver","intravenous, 1.85 MBq, 120 min",0.63 ± 0.12 %ID/g
CCCC[C@H]1C(=O)N(C)[C@@H](CCCC)C(=O)N[C@@H](CCCNC(=O)CN2CCN(CC(=O)O)CCN(CC(=O)O)CCN(CC(=O)O)CC2)C(=O)N[C@H](C(=O)NCC(N)=O)CSCC(=O)N[C@@H](Cc2ccc(O)cc2)C(=O)N(C)[C@@H](C)C(=O)N[C@@H](CC(N)=O)C(=O)N2CCC[C@H]2C(=O)N[C@@H](Cc2c[nH]cn2)C(=O)N[C@@H](CC(C)C)C(=O)N(C)CC(=O)N[C@@H](Cc2c[nH]c3ccccc23)C(=O)N[C@@H](CO)C(=O)N[C@@H](Cc2c[nH]c3ccccc23)C(=O)N1C [gallium-68 labelled],,"NOD/SCID mice, CHO-hPD-L1 xenograft, blood","60 min, atezolizumab 10 mg/kg pretreatment",9.54 ± 0.7 %ID/g
